Assay results gathered from unrelated publications.
Each line is one published result; not all experiments were run side by side. Values joined by “and” are separate records of one study, mostly repeats; a detail may differ.
Target: Ephrin type-B receptor 3 (EPHB3, Homo sapiens, UniProt P54753)

Compound = Cc1nc2c(F)cc(-c3nc(Nc4ccc(CNC(=O)CCCCCCC(=O)NO)cc4)ncc3F)cc2n1C(C)C; test = enzyme activity, inhibitor; setting = 1 µM; quantity = inhibition; result = 27%
Compound = C=CC(=O)Nc1cc(-c2nn(C3CCN(CCNC(=O)[C@H](C)CCC45CC6CC(CC(C6)C4)C5)CC3)c3ncnc(N)c23)ccc1Oc1ccccc1; test = inhibitor, KiNativ profiling; test system = biochemical; setting = 2 µM; quantity = inhibition; result = 2.5%
Compound = CNC1C[S+]2CC[S+]3CC[S+](C1)[Ru-4]321([N]=C=S)[n]2c3ccc(OC)cc3c3c4c(c5cc(F)c[n+]1c5c32)C(=O)NC4=O (stereo not shown); test = KinomeScan; setting = 0.1 µM; scale = reference: untreated; quantity = remaining binding; result = 90%
Compound = Nc1ncc2c(n1)-c1c([nH]c3ccc(C4=CCOCC4)cc13)CCC2; test = binding, competition with immobilised ligand; setting = 1 µM; quantity = remaining binding; result = 87%
Compound = COc1c(Cl)cccc1Nc1c(-c2ccncc2C#C[C@@]2(C)CCCN2C(=O)/C=C/CN(C)C)[nH]c2c1C(=O)NCC2; test = cell-free assay, competition with immobilised ligand; setting = 3 µM; quantity = remaining binding; result = 99%
Compound = COc1cc(Nc2nc(C)cc(-c3cnn4nc(OC)ccc34)n2)cc(C(F)(F)F)c1; test = inhibitor; setting = 1 µM; scale = reference: control; quantity = remaining activity; result = 97%
Compound = CNC(=O)C1CCN(c2cc(C)c(F)cc2NC(=O)c2ccc(-c3cc(O)ccc3C)c(C)c2)CC1; test = binding, competition with immobilised ligand; setting = 1 µM; quantity = remaining binding; result = 2.7%
Compound = CCN1CCN(Cc2ccc(NC(=O)c3ccc(C)c(NC(=O)c4cncc(-c5cccs5)c4)c3)cc2C(F)(F)F)CC1; test = binding, competition with immobilised ligand; setting = 1 µM; quantity = remaining binding; result = 27%
Compound = CN1CCN(Cc2ccc(-c3ccc(CO[C@H]4CCC[C@@H]4NC(=O)c4cc(-c5cnn(C)c5)cnc4N)cc3)cc2)CC1; test = enzyme activity, inhibitor; setting = 0.1 µM; quantity = inhibition; result = 2%
Compound = CNC(=O)C[C@H](Cc1ccc(C#N)cc1)NC(=O)c1cc(-c2ccc(CN[C@H](C)c3ccc(C)cc3)o2)ccc1Cl; test = enzyme activity, inhibitor; setting = 1 µM; quantity = activity vs control; result = 98%
Compound = Cc1cccc(-c2ccc3nc(NC(=O)C4CCCO4)nn3c2)c1 (stereo not shown); test = enzyme activity, Dundee kinase panel; setting = 10 µM; quantity = remaining activity; result = 90%
Compound = Cc1ccc(-c2c(/C=C(\C#N)C(=O)NC(C)C)n(CCCO)c3ncnc(N)c23)cc1; test = cell-free assay, competition with immobilised ligand; setting = 1 µM; quantity = remaining binding; result = 74%
Compound = C=CC(=O)Nc1cccc(-c2cnc3[nH]cc(C(=O)NC(C)(C)C)c3n2)c1; test = kinase activity; setting = 0.1 µM; quantity = inhibition; result = -2% and 4%
Compound = C=CC(=O)N1CCCC(n2c(=O)c3ncccc3n(Cc3ccc(Oc4ccccc4)cc3)c2=O)C1 (stereo not shown); test = cell-free assay, competition with immobilised ligand; setting = 1 µM; quantity = remaining binding; result = 100%
Compound = Cc1cnc2nc1Nc1cccc(c1)COC/C=C/COCc1cc(ccc1OCCN1CCOCC1)N2; test = binding; setting = 0.1 µM; quantity = remaining binding; result = 100%
Compound = Cc1cccc(-c2ccc3nc(NC(=O)C4CCCCC4)nn3c2)c1; test = enzyme activity, Dundee kinase panel; setting = 10 µM; quantity = remaining activity; result = 93%
Compound = CC(C)=CC1OC(C)(C)C2C=C3C(=O)C(Cl)=CC(O)C3C3C(O)C4OC4C(=O)C132 (stereo not shown); test = cell-free assay, competition with immobilised ligand; setting = 10 µM; quantity = remaining binding; result = 89%
Compound = NC(=O)[C@@H](O)C[C@H]1CCc2sc3ncnc(O[C@H]4CC[C@H](N5CCOCC5)CC4)c3c21; test = enzyme activity, inhibitor; setting = 10 µM; quantity = inhibition; result = 12%
Compound = Cc1cccc(O[C@H]2CCC[C@@H](C(C)CNCc3ccncc3)C2)c1 (relative stereo); test = cell-free assay; setting = 10 µM; quantity = inhibition; result = -6%

A few entries again:
Compound = CN1CCN(Cc2ccc(-c3ccc(CO[C@H]4CCC[C@@H]4NC(=O)c4cc(-c5cnn(C)c5)cnc4N)cc3)cc2)CC1; test = enzyme activity, inhibitor; setting = 0.1 µM; quantity = inhibition; result = 2%
